Measured values from different studies.
Parts stem from different laboratories: compare values within a part only. Changes are numbered by the printed parent chain.

Series 1 — target: CREBRF, bZIP domain (human); method: DHFR protein complementation; matrix: yeast; reference: wild-type JUN-FOS pair; reading: higher = stronger binding; measurement: binding fitness
Setting: single substitutions, most at no-binding floor
Parent: JUN, bZIP domain (human); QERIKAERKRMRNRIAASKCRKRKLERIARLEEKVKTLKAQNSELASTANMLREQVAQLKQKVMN; partner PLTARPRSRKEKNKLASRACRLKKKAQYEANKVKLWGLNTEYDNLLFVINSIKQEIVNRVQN
L31E: -1.39 natural log
L45R: -1.51 natural log
M51G: -1.37 natural log
S47H: -1.43 natural log

Series 2 — method: protein binding microarray; molecule type: double-stranded DNA, one strand shown; matrix: in vitro; concentration: not given; reference: not given; reading: higher = stronger binding; measurement: E-score
Target: Histone acetyltransferase KAT6A, winged helix 1, GST fusion (KAT6A, Homo sapiens, UniProt Q92794, residues 1-85)
Setting: 8-mer, flanks averaged, mean of 2 arrays, mostly near background
Target sequence (chain): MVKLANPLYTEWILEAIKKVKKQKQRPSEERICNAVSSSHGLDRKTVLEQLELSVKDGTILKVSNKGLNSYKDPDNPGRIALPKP
ATTGATAG: -0.136
CTATCGCA: -0.0197
TCCCCTAA: -0.141
ACGCGCAC: 0.373
AGTCGACG: 0.0664
CCGCGTCG: 0.419
TCGCACCA: -0.0795

Series 3 — target: OGT, full length, His-tagged (human); method: phage display, sequencing; matrix: in vitro; concentration: 1 µg OGT; reference: input library; reading: higher = stronger binding; measurement: fold enrichment; parent: peptide; NSEYMPQYQIIFAHQ
Setting: single substitutions, 15-mer displayed peptide, unchanged parent 16.7
Q9E: 6.21 fold
Y4V: 1.07 fold
I10Q: 0.581 fold
A13E: 18.5 fold
M5F: 10.2 fold

Further values, each from its own experiment
PhoQ, residues 284 288 289 292 302 303 GANMMA
fold induction (PhoP, residues 12 14 15 18 19 LHSVW (Escherichia coli, UniProt P23836); Sort-seq, refers to: YFP reporter; E. coli; PhoQ-PhoP variant library, added: 10 µM Mg2+; reference: high Mg2+ state, higher = stronger signaling): 7.35

For quick reference, copied from above (series 2):
ACGCGCAC: 0.373
AGTCGACG: 0.0664
